# Experimental data of several laboratories.
# Every numbered part comes from another study and shows a few of its results, in no order. Substitutions count along the parent as printed.

# Set 1
# Target: ABI1, truncated, D143A, DHFR fusion (Arabidopsis thaliana)
# Technique: DHFR PCA, deep sequencing
# Sample: yeast
# Notes: methotrexate growth selection, single substitutions
# With: (+)-ABA 1.4 µM
# Baseline: wild-type fitted maximum
# Direction: higher = stronger binding
# Starting sequence: PYL1, truncated, DHFR fusion (Arabidopsis thaliana); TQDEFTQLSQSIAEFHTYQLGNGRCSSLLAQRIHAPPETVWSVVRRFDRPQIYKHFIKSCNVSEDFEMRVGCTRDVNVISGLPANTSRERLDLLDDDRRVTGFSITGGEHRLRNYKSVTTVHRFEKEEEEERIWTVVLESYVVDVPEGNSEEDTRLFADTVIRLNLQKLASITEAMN; partner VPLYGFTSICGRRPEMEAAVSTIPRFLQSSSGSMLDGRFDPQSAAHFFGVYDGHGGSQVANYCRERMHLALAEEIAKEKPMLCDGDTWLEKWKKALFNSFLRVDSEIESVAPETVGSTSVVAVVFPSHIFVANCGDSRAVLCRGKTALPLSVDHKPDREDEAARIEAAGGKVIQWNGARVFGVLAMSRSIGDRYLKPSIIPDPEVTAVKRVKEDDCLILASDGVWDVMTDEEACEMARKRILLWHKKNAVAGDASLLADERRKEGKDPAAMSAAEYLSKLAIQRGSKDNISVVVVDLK
Variant,relative binding score
I33C,28.9%
L29C,25.6%
R111N,3.55%
P37D,7.22%
R163K,64.3%
E127R,57.9%
T119D,-3.07%
T173A,55.1%
F15W,58.5%
T6Y,30%
R111S,1.62%
E174H,21%
N149A,47.3%

# Set 2
# Target: Ras GTPase-activating protein-binding protein 1, RRM domain (G3BP1, Homo sapiens, UniProt Q13283)
# Sequence of UniProt Q13283 (whole entry, looked up): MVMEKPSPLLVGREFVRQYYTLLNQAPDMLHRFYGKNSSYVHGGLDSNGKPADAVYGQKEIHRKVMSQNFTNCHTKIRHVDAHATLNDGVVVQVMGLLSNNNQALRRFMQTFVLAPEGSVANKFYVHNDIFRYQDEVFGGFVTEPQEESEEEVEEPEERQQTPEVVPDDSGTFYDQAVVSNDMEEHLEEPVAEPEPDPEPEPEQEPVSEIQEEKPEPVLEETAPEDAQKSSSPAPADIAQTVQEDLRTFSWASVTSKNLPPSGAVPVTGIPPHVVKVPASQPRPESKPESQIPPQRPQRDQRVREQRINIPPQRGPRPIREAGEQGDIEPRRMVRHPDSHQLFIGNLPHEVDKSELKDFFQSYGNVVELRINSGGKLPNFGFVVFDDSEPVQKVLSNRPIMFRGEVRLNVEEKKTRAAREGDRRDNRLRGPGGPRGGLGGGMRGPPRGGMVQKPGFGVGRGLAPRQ
# Technique: RNA Bind-n-Seq
# Form: RNA
# Sample: in vitro
# Tested at: 1 µM
# Notes: whole 134-nt RNA, ends assumed
# With: 150 mM KCl
# Baseline: input library
# Direction: higher = stronger binding
# All sequences stand within: GGGAGUUCUACAGUCCGACGAUC … UGGAAUUCUCGGGUGUCAAGG
Strand,log2 enrichment
UCAAGUCCUGUGCUACACAUCGUAUGUACCGAAUCGGGAAGGGAAGGGGAAGGGGAAAGUAUUAUGUUACGCCGUUCGGAUCUGCACUUC,1.04
CUCAAGUCCUGUGCUACACAUCGUAUGUACCGAAUCGGAAGGAAGGGGAAGGGGAAAGUAUUAUGUUACGCCGUUCGGAUCUGCACUUCC,-0.199
GCAGGAAGUAAAAACAAAUGGAAAUGCUUCGGAUAGUGGCAGGGGUGGGGGUUGCUAAGGAAAGGGUGGGAUGGCAGUGGGUAAAGAGUU,1.03
GCAGGAAGUAAAAACAAAUGGAAAUGCUUCGGAUAGUGGCAGGGGUGGGGGUUGCUAAUGAAAGGGUGGGAUGGGAGUGGGUAAAGAGUU,1.87
AAGUCCUGUGCUACACAUCGUAUGUACCGAAUCGGGUGGGAAAAAAAGGGUUUGGGAAAGUAUUAUGUUACGCCGUUCGGAUCUGCACUU,0.659
UGCAGUGAUGGUCAUUGUCCUCCAGAGCAGUGAUGGAGGAAAUACCAGCCCAGGAAGCAGCAGGGUCACCAAGGGUCCAGUUUCAGUCUU,-0.109
UGGGAGGUGGAUUUUGUUUAUUUUUUUAGCUCAUUUCCAGGGGUGGGAAUUUUUUUUUAAUAUGUGUCAUGAAUGAAGUUGUUUUUGAAA,1.48
UAACUUUAGAGGAGGAUCUGAUGGAUAUGGCAGUGGACGUGGAUUUGGGGAUGGCUAUAAUGGUUAUGGAGGAGGACCUGGAGGUGGCAA,-0.373
GUCCUGUGCUACACAUCGUAUGUACCGAAUCGGGGAAAAAGGGGAAAAAGGAAAAAGGGAAAGUAUUAUGUUACGCCGUUCGGAUCUGCA,-0.146
UCCUGUGCUACACAUCGUAUGUACCGAAUCAAACCCCCAAACCCCCAAAUUUUUUUAAAAAAGUAUUAUGUUACGCCGUUCGGAUCUGCA,-0.266
AGUCCUGUGCUACACAUCGUAUGUACCGAAUCGGGAAAGGGUUUUUGGGAAAAAGGGAAAGUAUUAUGUUACGCCGUUCGGAUCUGCACU,0.317
CACAGACAACACGCACCCACACAGACACAGAGGGAAGGGGUUGGGAUGGGGACAGGGUGCACAGCAGGGCGGGGUAGGAUCCCAGCCCCU,-0.244
CACAGACAACACGCACCCACACAGACACAGAGGGAAGGGGUUGGGAUGGGGACAGGGUGCACAGCAGGGCAAAGUAGGACCCCAGCCCCU,-0.0659
AAGUCCUGUGCUACACAUCGUAUGUACCGAAUCGGAAAGGUUUUUGGUUUUUUUGGAAAGUAUUAUGUUACGCCGUUCGGAUCUGCACUU,-0.349

# Set 3
# Target: CCNF, cyclin fold, Cln2 fusion (human)
# Technique: yeast growth competition, sequencing
# Sample: yeast
# Notes: strong parent motif
# Baseline: not given
# Direction: higher = stronger binding
# Starting sequence: E2F7 docking peptide (human); SSAQRRLEIPSGG; partner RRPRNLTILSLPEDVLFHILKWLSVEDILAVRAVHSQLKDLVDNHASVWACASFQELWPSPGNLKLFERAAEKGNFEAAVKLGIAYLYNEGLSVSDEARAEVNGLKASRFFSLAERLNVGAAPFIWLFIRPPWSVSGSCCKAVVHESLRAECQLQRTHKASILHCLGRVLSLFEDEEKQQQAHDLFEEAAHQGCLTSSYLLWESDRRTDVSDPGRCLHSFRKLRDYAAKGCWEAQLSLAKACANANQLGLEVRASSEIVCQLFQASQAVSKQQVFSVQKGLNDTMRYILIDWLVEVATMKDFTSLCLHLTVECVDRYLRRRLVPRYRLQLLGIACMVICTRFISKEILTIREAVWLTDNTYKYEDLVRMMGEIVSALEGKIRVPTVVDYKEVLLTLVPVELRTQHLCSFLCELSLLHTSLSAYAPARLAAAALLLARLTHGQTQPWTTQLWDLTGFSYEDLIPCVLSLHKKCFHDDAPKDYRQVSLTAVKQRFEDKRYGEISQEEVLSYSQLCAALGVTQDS
Variant,normalised enrichment score
SSAQKRLEIPSGG [R5K],0.272
ASAQRRLEIPSGG [S1A],3.23
SSAQRRLEFPSGG [I9F],7.75
SSAARRLEIPSGG [Q4A],3.06
SSAQRRLELPSGG [I9L],4.03
SSAQRALEIPSGG [R6A],-1.09
SSAQRRLEIPSGA [G13A],3.4
SSAQRRLEIPAGG [S11A],3.02
SSAQARAEIPSGG [R5A L7A],-0.0478
SSAQRRLAIPSGG [E8A],1.55

# Set 4
# Target: Interferon regulatory factor 7, full length, phosphomimetic (IRF7, Homo sapiens, UniProt Q92985, residues 1-503, S471D/S472D/S475D/S476D/S477D/S483D/S484D/S487D)
# Technique: protein-binding microarray
# Form: double-stranded DNA, one strand shown
# Sample: in vitro
# Tested at: 2200 nM top
# Notes: 60-bp whole probe
# With: salmon DNA 0.4 mg/ml
# Baseline: random background probes
# Direction: higher = stronger binding
# All sequences stand within: GCCTAGCAC … GTCTTGATTCGCTTGACGCTGCTG
# Target sequence (chain): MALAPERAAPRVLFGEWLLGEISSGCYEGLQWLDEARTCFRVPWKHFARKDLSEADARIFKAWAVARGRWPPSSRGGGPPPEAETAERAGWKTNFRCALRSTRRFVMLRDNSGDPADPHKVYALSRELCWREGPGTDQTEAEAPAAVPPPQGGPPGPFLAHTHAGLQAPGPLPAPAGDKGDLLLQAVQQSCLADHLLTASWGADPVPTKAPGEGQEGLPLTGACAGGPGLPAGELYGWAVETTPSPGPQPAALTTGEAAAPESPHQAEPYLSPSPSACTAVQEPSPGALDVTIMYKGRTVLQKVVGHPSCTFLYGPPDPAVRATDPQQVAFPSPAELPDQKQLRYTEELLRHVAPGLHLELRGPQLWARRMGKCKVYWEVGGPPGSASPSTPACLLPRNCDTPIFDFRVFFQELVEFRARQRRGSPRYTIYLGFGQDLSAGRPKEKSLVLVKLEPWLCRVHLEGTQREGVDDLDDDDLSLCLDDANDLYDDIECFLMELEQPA
Strand,fitted relative affinity [z-score]
CCCATTCTGAATTCGAATGCGTGCTAG,1.82
TTAGGACTGGGGTATTGGTTAGTGCTA,-0.261
TCAAAAATCCCATTAAAACTGTGCTAG,-0.622
TTAGGTTCCTGTTTCGGTTAGTGCTAG,6.37
TTAGAACTGGGGTTCCGATTAGTGCTA,0.192
TTAGGACTGCGTTTCCTTTAGTGCTAG,0.608
GACGGTTCCCTTTTGCTGACGTGCTAG,2.76
GACGGACTGGGTCTCGGGAAGTGCTAG,-0.88
GACGGTATCGGACTGTGGACGTGCTAG,-0.243
GACGATTCCGGGTATCGAGACGTGCTA,0.897
TCACTTTTTTTTTTTTTACTGTGCTAG,2.54
TCATGCCTCATCTTGCAGACTGTGCTA,0.875
GACGATTTCGGGTATCTAGACGTGCTA,2.76
GATGAACTGAGACTGGAGACGTGCTAG,-0.291
GACGGACTACTTCTCCTGACGTGCTAG,0.592
